# Results of several laboratories.
# “And” joins repeats or separate records; there may be more than shown. Numbers after ± are the reported error.
SMILES,test,system,conditions,scale,endpoint,value
C[C@@H]1OC(=O)NN=C1c1ccc(-c2ccc(F)cc2)c(C(F)(F)F)c1,"phase I trial, item: muscle spasms all grades",human patients,20 mg loading then 1 mg daily,,patients with adverse event,0%
COc1ccc(-c2c(-c3ccc(C#N)c(F)c3)nc(N3CCC(N)CC3)n(C)c2=O)cc1F,item: Chest pain,human patients,"oral, 60 mg, dose expansion",,serious adverse event incidence,5%
O=C(c1ccc(F)c(F)c1Nc1ccc(I)cc1F)N1CC(O)([C@@H]2CCCCN2)C1,,patients aged 2 to 6 years,"oral, dose not given",,adverse events of special interest,50%
CC(=O)c1c(C)c2cnc(Nc3ccc(C4CCN(CCS(C)(=O)=O)CC4)cn3)nc2n(C2CCCC2)c1=O,,"human, plasma","oral, 50 mg twice daily, day 1, single dose, added: letrozole",,half-life,3.92 h
CC[C@H](C)[C@H](NC(=O)[C@H](CCC(=O)O)NC(=O)[C@H](CCCNC(=N)N)NC(=O)[C@H](CCCNC(=N)N)NC(=O)[C@H](CCCNC(=N)N)NC(=O)[C@H](CCC(N)=O)NC(=O)[C@H](CCCNC(=N)N)NC(=O)[C@H](CCCNC(=N)N)NC(=O)[C@H](CCCCN)NC(=O)[C@H](CCCCN)NC(=O)[C@H](CCCNC(=N)N)NC(=O)CNC(=O)[C@H](Cc1ccc(O)cc1)NC(C)=O)C(=O)N[C@@H](CC(=O)O)C(=O)N[C@@H](Cc1c[nH]cn1)C(=O)N[C@@H](CC(=O)O)C(N)=O,HE and NeuN staining,"normal mouse, hippocampus","intravenous, dose not given",,neuron number and morphology,no effect
Clc1ccc(Cl)c(-c2cc(Cl)ccc2Cl)c1,,"Sprague Dawley rat female, serum","intraperitoneal, 100 mg/kg, 3 weeks",,concentration,15 ng/g
COc1cc(C(=O)NC2CCN(C)CC2)c(F)cc1Nc1ncc(C(F)(F)F)c(Oc2cccc3c2C(=O)N(C)C3)n1,,"human patients, urine","oral, 25 mg single dose, geometric mean",relative to: dose,fraction excreted in urine (0-48 h),6.15%
CN[C@@H](C)C(=O)N[C@H]1CN(S(=O)(=O)c2cccc(S(=O)(=O)N3CC[C@H]4CC[C@@H](C(=O)NC(c5ccccc5)c5ccccc5)N4C(=O)[C@@H](NC(=O)[C@H](C)NC)C3)c2)CC[C@H]2CC[C@@H](C(=O)NC(c3ccccc3)c3ccccc3)N2C1=O,,patients advanced solid tumours,"dose not given, all grades all doses",,treatment-related facial nerve disorder,10.7%
O=C(Nc1ccccc1)C1CCN(C(=O)Oc2cccnc2)CC1,adverse event reporting,healthy women,"oral, 60 mg, 7 days",,subjects with eye disorders,7.1%
C[C@]1(CO)Cc2ncn(-c3ccc(C#N)c(Cl)c3)c2C(=O)O1,,Japanese subjects,20 mg single dose,,drug-related Dizziness incidence,16.7%
[O-][S+]1CCc2nc(N3CCC(c4ncc(Cl)cn4)CC3)nc(NC3(CO)CCC3)c21 (stereo not drawn),item: mean,"idiopathic pulmonary fibrosis patients, blood","18 mg twice daily, at last treatment",,alanine aminotransferase,12.7 U/L
CCc1ccc(CC/C=C/c2ccc3c(c2)C(=O)CC3)cc1,,"Sprague-Dawley rat, female","oral, 450 mg/kg/day, 14 days",,Eosinophil percentage,0.7%
CCC(C)c1cc(C(C)(C)C)cc(-n2nc3ccccc3n2)c1O (stereo not drawn),,EpiSkin reconstructed epidermis,36 h,,mass recovery,70.2%
C=CC(=O)N1CC[C@H](n2nc(C#Cc3cc(OC)cc(OC)c3)c3c(N)ncnc32)C1,,patients with advanced solid tumours,"oral, dose not given, Stomatitis, any grade, QD, added: sevelamer hydrochloride",,adverse drug reaction incidence,18.2%
CCN1[C@@H](C(=O)NC23CCC(C(=O)O)(CC2)CC3)[C@H](c2cccc(Cl)c2F)[C@]2(C(=O)Nc3cc(Cl)ccc32)C12CCCCC2,,advanced solid tumour patients,"oral, dose not given",,grade ≥3 febrile neutropenia,9.5%
C[C@@H](NC(=O)N1C(=O)[C@H](Cc2ccnc(N)c2)[C@H]1C(=O)O)C1CCCCC1,,healthy adult Chinese volunteers,"continuous intravenous infusion, 0.6 mg/kg/h, 5-day infusion, CTCAE 5.0 grading",,incidence of hypokalemia,0%
O=S(=O)(Nc1ccccc1)c1ccc(NC(=S)Nc2ccccc2)cc1,,"female mouse, blood","oral, 5 mg/kg daily, 14 days",,mean corpuscular haemoglobin,14.9 pg
CN1CC[C@@H](c2c(O)cc(O)c3c(=O)cc(-c4ccc(C(F)(F)F)cc4Cl)oc23)[C@@H]1CO,item: Constipation,AML,"oral, 150 mg, intermittent dosing",,patients with adverse event,50%
CNC(=O)n1ccc2cc(Oc3ccnc(NC(=O)c4ccc(C5CCN(CCO)CC5)cc4)c3)c(OCCOC)cc21,,"healthy human, plasma","oral, dose not given, added: rabeprazole steady state",relative to: compound alone,AUC(0-inf) change,~8%
CC[C@H](C)[C@H](NC(=O)[C@H](Cc1ccccc1)NC(=O)[C@H](CCC(=O)O)NC(=O)[C@H](CCCNC(=N)N)NC(=O)[C@H](C)NC(=O)[C@H](C)NC(=O)[C@H](CCC(N)=O)NC(=O)[C@H](CCC(=O)O)NC(=O)[C@H](CCC(=O)O)NC(=O)[C@H](CC(C)C)NC(=O)[C@H](Cc1ccc(O)cc1)NC(=O)[C@H](CO)NC(=O)[C@H](CO)NC(=O)[C@@H](NC(=O)[C@H](CC(=O)O)NC(=O)[C@H](CO)NC(=O)[C@@H](NC(=O)[C@H](Cc1ccccc1)NC(=O)[C@@H](NC(=O)CNC(=O)[C@H](CCC(=O)O)NC(=O)[C@H](C)NC(=O)CCc1cnc[nH]1)[C@@H](C)O)[C@@H](C)O)C(C)C)C(=O)N[C@@H](C)C(=O)N[C@@H](Cc1c[nH]c2ccccc12)C(=O)N[C@@H](CC(C)C)C(=O)N[C@H](C(=O)N[C@@H](CCCNC(=N)N)C(=O)NCC(=O)N[C@@H](CCCNC(=N)N)C(=O)N[C@@H](CCCCNC(=O)COCCOCCNC(=O)COCCOCCNC(=O)CC[C@H](NC(=O)CCCCCCCCCCCCCCCCC(=O)O)C(=O)O)C(=O)NCC(=O)NCC(=O)N[C@@H](CO)C(=O)N[C@@H](CCCCNC(=O)[C@H](CCCCNc1c(NCCCCCN(O)C(=O)CCC(=O)NCCCCCN(O)C(=O)CCC(=O)NCCCCCN(O)C(C)=O)c(=O)c1=O)Nc1c(NCCCCCN(O)C(=O)CCC(=O)NCCCCCN(O)C(=O)CCC(=O)NCCCCCN(O)C(C)=O)c(=O)c1=O)C(=O)O)C(C)C [zirconium-89 labelled],ex vivo gamma counting,"Sprague-Dawley rat, male, kidney","intravenous, 1 nmol, 24 h",,tissue uptake,7.67 %ID/g and 6.58 %ID/g and 6.68 %ID/g and 6.55 %ID/g and 7.87 %ID/g
CC(C)[C@@H]1NC(=O)CNC(=O)[C@H](CC(N)=O)NC(=O)[C@H](CCCNC(=N)N)NC(=O)[C@H](Cc2ccc(O)cc2)NC(=O)[C@H](C(C)C)NC(=O)[C@@H](NC(=O)[C@@H](NC(=O)[C@H](CC(N)=O)NC(=O)[C@H](Cc2c[nH]c3ccccc23)NC(=O)[C@H](C)NC(=O)[C@H](Cc2ccccc2)NC(=O)CN)C(C)C)CSSC[C@@H](C(=O)N[C@@H](Cc2cnc[nH]2)C(=O)N[C@@H](CCCNC(=N)N)C(=O)N[C@@H](CCCNC(=N)N)C(=O)N[C@@H](C)C(=O)N[C@@H](CC(N)=O)C(N)=O)NC(=O)[C@H](C(C)C)NC(=O)[C@H](CCCNC(=N)N)NC1=O,,"ICR mice, blood","intraperitoneal, 5 mg/kg, day 5",,basophils,1.46 ± 0.16%
C=CC(=O)N[C@H]1C=C(C)c2c(-c3cnc4ccccc4c3)c3c(N)ncnc3n2C1,two-compartment PK model,"mouse, plasma","oral, dose not given",,peripheral volume of distribution,3.83 L
COc1ccnc(C(=O)N[C@H]2COC(=O)[C@H](Cc3ccccc3)[C@@H](OC(=O)C(C)C)[C@H](C)OC2=O)c1OCOC(=O)C(C)C,,"field soil, loamy sand","normalised, Germany",,DT50,48.2 days
CO[C@H]1C[C@@H]2CC[C@@H](C)[C@@](O)(O2)C(=O)C(=O)N2CCCC[C@H]2C(=O)O[C@H]([C@H](C)C[C@@H]2CC[C@@H](OC(=O)NCCOCCOCCOCCOCCOCCOCCOCCOCCC(=O)N3CCc4cc(Cn5nc(-c6ccc7oc(N)nc7c6)c6c(N)ncnc65)ccc4C3)[C@H](OC)C2)C[C@@H](O)[C@H](C)/C=C(\C)[C@@H](O)[C@@H](OC)C(=O)[C@H](C)C[C@H](C)/C=C/C=C/C=C/1C,"phase 1 dose escalation, item: fatigue",advanced solid tumour patients,"intravenous, 10 mg weekly, any grade",,TRAE incidence,50%
Clc1nc[n]([Au][PH](c2ccccc2)(c2ccccc2)c2ccccc2)c1Cl,,NCG mouse,"intraperitoneal, single dose, 25 days observation",,maximum tolerated dose,5 mg/kg
O=C(Nc1ccccc1)C1CCN(C(=O)Oc2cccnc2)CC1,item: Asthenia,healthy female human,"concentration not given, all doses pooled",,adverse event incidence,4%
Cc1cccc(Cn2nc(C3CC3)c3c(NC(=O)c4cnc5cc(OCCN6CCN(C)CC6)ccn45)cccc32)n1,CTCAE v4.03,patients with advanced solid tumours,"oral, all dose levels, added: pembrolizumab 2 mg/kg IV every 3 weeks",,all-cause adverse events,94.7%
COc1ncccc1-c1cnn2ccc(N3CCN(C(=O)OC(C)C)CC3)nc12,,"rat, CCI mechanical hyperalgesia model, plasma","oral, 3 mg/kg, 210 min",,drug concentration,400 nM
CC(C)n1c(/C=C/C(O)CC(O)CC(=O)O)c(-c2ccc(F)cc2)c2ccccc21 (stereo not drawn),,human,"oral, 20 mg, alone, control phase",,Vss/F,280 ± 121 L
COc1ccc2nc3cc(Cl)ccc3c(Nc3cc(CN4CCCC4)c(O)c(CN4CCCC4)c3)c2n1,,"mouse, blood","intraperitoneal, 57 mg/kg",,red cell distribution width (SD),26.3 fL
N[C@@H]1c2ccccc2OC12CCN(c1cnc3c(N4CCCc5ncccc54)n[nH]c3n1)CC2,,advanced solid tumour patients,"oral, 10 mg once daily",,TEAE causing dose reduction,0%
CC(C)C[C@H](NC(=O)[C@H](CCCCN)NC(=O)OCC1c2ccccc2-c2ccccc21)C(=O)N[C@H](C(=O)N[C@@H](Cc1ccccc1)C(=O)N[C@@H](Cc1ccccc1)C(=O)N[C@@H](CCCCN)C(=O)NCC(=O)N[C@@H](Cc1ccccc1)C(=O)N[C@@H](C)C(=O)N[C@@H](Cc1c[nH]c2ccccc12)C(=O)N[C@@H](CC(N)=O)C(=O)N[C@H](C(=O)N[C@H]1CSSC[C@@H](C(=O)N[C@@H](Cc2c[nH]cn2)C(=O)N[C@@H](CCCNC(=N)N)C(=O)N[C@@H](CCCNC(=N)N)C(=O)N[C@@H](C)C(=O)N[C@@H](CC(N)=O)C(N)=O)NC(=O)[C@H](C(C)C)NC(=O)[C@H](CCCNC(=N)N)NC(=O)[C@H](C(C)C)NC(=O)CNC(=O)[C@H](CC(N)=O)NC(=O)[C@H](CCCNC(=N)N)NC(=O)[C@H](Cc2ccc(O)cc2)NC(=O)[C@H](C(C)C)NC1=O)C(C)C)C(C)C,"circular dichroism, item: β-Turn",PBS,"80 µM, pH 7.4, added: LPS 1 µM",,secondary structure content,17%
CC1(C)C(/C=C(\Cl)C(F)(F)F)C1C(=O)OC(C#N)c1cccc(Oc2ccccc2)c1 (stereo not drawn),item: CYP3A5,"human, age 5 years",,,enzyme contribution to clearance,0.05%
CC[C@H](C)[C@H](NC(=O)[C@H](CCCCN)NC(=O)[C@H](CC(=O)O)NC(=O)[C@H](CC(C)C)NC(=O)[C@@H](NC(=O)[C@H](CC(N)=O)NC(=O)[C@H](CC(C)C)NC(=O)[C@@H](NC(=O)[C@H](Cc1ccccc1)NC(=O)[C@H](CCCCN)NC(=O)[C@H](CCCCN)NC(=O)CNC(=O)[C@H](C)NC(=O)[C@H](CC(N)=O)NC(=O)[C@H](CCCCN)NC(=O)[C@H](Cc1ccccc1)NC(=O)[C@H](CC(N)=O)NC(=O)[C@H](CCC(=O)O)NC(=O)[C@H](Cc1c[nH]c2ccccc12)NC(=O)[C@H](CC(C)C)NC(=O)[C@@H](N)CO)[C@@H](C)CC)[C@@H](C)CC)C(=O)N[C@@H](CCCNC(=N)N)C(N)=O,,horse erythrocytes,"2 h, 37 °C",relative to: Triton X-100,HC50,> 128 µM
CCC[C@@](N)(CO)CCc1ccc(OCCCCCC(C)C)cc1,,"dog, male hounds, plasma","oral capsule, 2.5 mg/kg, median",,Tmax,8 h
COc1cc2c(Oc3ccc4[nH]c(C)cc4c3F)ccnc2cc1OCC1(N)CC1,,paediatric recurrent refractory sarcoma,12 mg,,grade 3 Myalgia,0%
